Experimental data gathered from unrelated publications.
Numbered parts are unrelated; each lists some results of a single study. “And” joins repeats or separate records; there may be more than shown.

Block 1 — organism: Sarcocystis neurona; read-out: parasite growth; tested at: 10 µM; time: 96 h; notes: first screen; reference: untreated
SMILES | log2 fold change
Oc1c(Cl)cc(Cl)c(Cl)c1Cc1c(O)c(Cl)cc(Cl)c1Cl | -3.29
CN1C(=O)CN=C(c2ccccc2)c2cc(Cl)ccc21 | -3.28
O=C(O)C(Cl)Cl | 0.26
NC1=NC(=O)C(c2ccccc2)O1 (centres unmarked) | 0.017
c1cncc([C@@H]2CCCN2)c1 | -0.5
CCC1(c2ccc(N)cc2)CCC(=O)NC1=O (centres unmarked) | 0.32
O=C(c1ccc(F)cc1)C1CCN(CCn2c(=S)[nH]c3ccccc3c2=O)CC1 | -5.06
CC(C)[C@]12O[C@H]1[C@@H]1O[C@]13[C@]1(O[C@H]1C[C@H]1C4=C(CC[C@@]13C)C(=O)OC4)[C@@H]2O | -3.21

Block 2 — method: CCK-8
SMILES: CC[C@@H](C)c1nc2cc(Nc3ccnc4ccc(S(=O)(=O)C(C)C)cc34)ccc2s1.Cl
cell line | conditions | survival
L929 RIPK3-/- reexpressing RIPK3 K51A/R69H | 3.125 µM, added: zVAD | 102% and 100% and 101%
L929 RIPK3-/- reexpressing RIPK3 K51A/R69H | 12.5 µM, added: zVAD | 94.4% and 102% and 94.5% and 99.2% and 97.2%
L929 RIPK3-/- reexpressing RIPK3 K51A/R69H | 6.25 µM | 99.6% and 94.5% and 96.5% and 91.6%
L929 RIPK3-/- reexpressing RIPK3 K51A | 25 µM, added: zVAD | 65.5% and 92.6% and 114% and 88.7%
L929 RIPK3-/- reexpressing RIPK3 K51A/R69H | 1.563 µM, added: zVAD | 98.9% and 97.3% and 99.5% and 101% and 99.4%

Block 3 — organism: Plasmodium berghei; action: inhibitor; cell line: Huh-7; strain: GFP-expressing sporozoites, liver stage; tested at: 10 µM; time: 24 h; reference: untreated control
Compound | infection rate [%]
C[C@@H](CO)NC(=O)[C@@H]1C=C2c3cccc4[nH]cc(c34)C[C@H]2N(C)C1 | 98.4
CN1C[C@H](C(=O)N[C@]2(C)O[C@@]3(O)[C@@H]4CCCN4C(=O)[C@H](Cc4ccccc4)N3C2=O)C=C2c3cccc4[nH]cc(c34)C[C@H]21 | 52.3
COc1ccc2c(c1)[C@]13CCCC[C@@H]1[C@H](C2)N(C)CC3 | 104

Single results of other studies
Compound | organism | test system | conditions | how to read | measurement | value
CNC(=O)c1ccc(-c2cnn3ccc(C(=O)N(C)c4ccc(Cl)c(C(=O)OC)c4)cc23)cc1 | Cryptosporidium parvum | neonatal calves | dose not given, 7 days | direction not given | fecal score AUC | 3.5 and 4 and 6 and 6.25 and 2.5 and 5.25

A few entries again (block 3):
Compound | infection rate [%]
CN1C[C@H](C(=O)N[C@]2(C)O[C@@]3(O)[C@@H]4CCCN4C(=O)[C@H](Cc4ccccc4)N3C2=O)C=C2c3cccc4[nH]cc(c34)C[C@H]21 | 52.3
COc1ccc2c(c1)[C@]13CCCC[C@@H]1[C@H](C2)N(C)CC3 | 104
